# Assay results gathered from unrelated publications.
# Every numbered part comes from another study and shows a few of its results, in no order.

# Set 1
# Target: Interferon regulatory factor 3, full length, phosphomimetic (IRF3, Homo sapiens, UniProt Q14653, residues 1-427, S386D/S396D/S398D/S402D/T404D/S405D)
# Technique: protein-binding microarray
# Molecule type: double-stranded DNA, one strand shown
# Sample: in vitro
# Concentration: 2540 nM top
# Setting: 60-bp whole probe
# Added: salmon DNA 0.4 mg/ml
# Relative to: random background probes
# Reading: higher = stronger binding
# All sequences stand within: GCCTAGCAC … GTCTTGATTCGCTTGACGCTGCTG
# Target sequence (chain): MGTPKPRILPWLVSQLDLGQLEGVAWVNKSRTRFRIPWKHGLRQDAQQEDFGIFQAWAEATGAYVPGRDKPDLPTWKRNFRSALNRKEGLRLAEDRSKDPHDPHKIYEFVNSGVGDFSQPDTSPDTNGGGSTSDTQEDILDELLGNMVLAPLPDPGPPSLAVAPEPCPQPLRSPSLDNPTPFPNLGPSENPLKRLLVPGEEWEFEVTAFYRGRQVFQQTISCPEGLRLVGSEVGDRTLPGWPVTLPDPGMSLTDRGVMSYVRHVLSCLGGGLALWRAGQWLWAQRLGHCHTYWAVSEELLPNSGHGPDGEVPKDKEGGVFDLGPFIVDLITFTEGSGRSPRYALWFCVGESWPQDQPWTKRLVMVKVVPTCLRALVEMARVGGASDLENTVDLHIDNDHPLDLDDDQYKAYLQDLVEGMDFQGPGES
Sequence,fitted relative affinity [z-score]
TTAGATATCAGTTTCGATTCGTGCTAG,6.52
TTAGGTCTCCTTCTCCGTTAGTGCTAG,3.91
GACGGACTGCACTTTCGGGACGTGCTA,0.612
GACGAACTGAGTTTCGAGAAGTGCTAG,0.813
AGAGCCTGGGGATGCAGAGAGTGCTAG,-1.24
TTTCCCTAGAAGACGAAAGAGTGCTAG,3.8
GACGATATTAGTTTCGAGACGTGCTAG,2.9
TTAGGATTCGGTCTCGGTTAGTGCTAG,3.49
TTAGGTATCGGGTATCGGTTTGTGCTA,2.9
TTAGATATCCGTCTCGATTAGTGCTAG,2.37
GACGGACAGGGTCTCGGGACGTGCTAG,-0.792
GACGTTTTCGGTCTCGGGACGTGCTAG,5.01
TTAGGTATCCTTTTCCATTAGTGCTAG,8.14
GCTTTTATCCCTGACAGAAGGTGCTAG,0.993
TCTTTTTATGCTTTCTTTAAGTGCTAG,1.57
TTAGGTTTCGTGTATCGGTTAGTGCTA,2.92
TCATTTTTCTAAGTAAAACTGTGCTAG,1.71
TCAGCTTTCTTTTATGCACTGTGCTAG,1.68
TCAACTCTTTATTTAAGACTGTGCTAG,0.53

# Set 2
# Target: Histone acetyltransferase KAT6A, winged helix 1, GST fusion (KAT6A, Homo sapiens, UniProt Q92794, residues 1-85)
# Technique: protein binding microarray
# Molecule type: double-stranded DNA, one strand shown
# Sample: in vitro
# Concentration: not given
# Setting: 8-mer, flanks averaged, mean of 2 arrays, mostly near background
# Relative to: not given
# Reading: higher = stronger binding
# Construct (chain): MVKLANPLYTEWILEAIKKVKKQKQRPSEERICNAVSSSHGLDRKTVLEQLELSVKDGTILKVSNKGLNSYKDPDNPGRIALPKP
Sequence,E-score
GGAAGAAC,0.0171
TATACACA,-0.0784
ATGTATGC,0.00886
CAAGGCCC,0.00194
GTCTAATA,-0.0513
CTTGGCTC,-0.19
GAGGACAC,-0.0831
AGGATGCG,0.0682
CAGGAGAC,-0.0764
AATACGAT,-0.0815
AGAACCAT,-0.116
GTCAAAAC,0.107
ACGGATGG,0.117
ACCTCAAC,-0.166
AGTCGCGG,0.348
CAGTCGTC,-0.122
AAAAAGAC,-0.158
CCCCTGGC,0.104
AACATTAA,0.0371
AACGACGC,0.0806
CAGTGCGA,0.00808

# Set 3
# Target: Prothrombin, mature alpha-thrombin (F2, Homo sapiens, UniProt P00734)
# Technique: aptamer microarray, sandwich
# Molecule type: DNA with 2'F-ANA
# Sample: in vitro
# Concentration: 200 nM
# Setting: whole 15-mer aptamer, many near background
# Added: Cy3 exosite-II aptamer, 400 nM
# Reading: higher = stronger binding
# Sequence: GGTTGGTGTGGTTGG
Modification,mean fluorescence intensity [a.u.]
2'F-ANA at 5 10 14 15,46.7
2'F-ANA at 1 3 5 6 7 8 9 10 12 13 15,52.3
2'F-ANA at 1 4 6 7 10 11 12 13 14,44.5
2'F-ANA at 1 2 5 6 8 10 11 12 13 14,56
2'F-ANA at 1 6 8 9 10,57.6
2'F-ANA at 1 2 4 5 6 10 11 15,49.2
2'F-ANA at 2 4 9 10 11 12 13 15,89.5
2'F-ANA at 2 3 4 6 7 8 10 11 14 15,150
2'F-ANA at 3 5 7 8 9,165
2'F-ANA at 1 2 3 4 7 8 9 11 13,145
2'F-ANA at 2 3 4 6 9 10 11 13,196
2'F-ANA at 1 3 4 6 12 13,278
2'F-ANA at 4 5 6 7 8 9 11 13 15,348
2'F-ANA at 1 3 5 9 10 12,49.1
2'F-ANA at 1 2 5 6 7 8 9 10 14 15,93.6
2'F-ANA at 1 4 6 10 11,50.5
2'F-ANA at 4 5 7 9 12 13,80
2'F-ANA at 3 6 7 9 10 12 14 15,402
2'F-ANA at 1 2 3 7 9 15,260
2'F-ANA at 1 2 6 8 9 10 14,53.7
2'F-ANA at 2 4 6 7 8 9 14,87.7
2'F-ANA at 2 6 8 9 15,424
2'F-ANA at 1 5 9 10 14,46.6

# Set 4
# Target: RNA binding protein fox-1 homolog 2, RRM domain, GST-SBP tag (RBFOX2, Homo sapiens, UniProt O43251-10, residues 100-194)
# Technique: RNA Bind-n-Seq
# Molecule type: RNA
# Sample: in vitro
# Concentration: 365 nM
# Setting: natural RNA segment, single round, ends assumed
# Relative to: no-protein control
# Reading: higher = stronger binding
# All sequences stand within: GGGAGUUCUACAGUCCGACGAUC … UGGAAUUCUCGGGUGCCAA
# Construct (chain): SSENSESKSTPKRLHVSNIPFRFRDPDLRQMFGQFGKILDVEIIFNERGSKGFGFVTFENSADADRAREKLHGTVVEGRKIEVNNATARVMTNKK
Sequence,RBNS enrichment (R)
CCUGGACUUUGCCUGGUGCCUUCUAGGCGUCUUUCAGAGAUGGCCCAGGAGGCUUGGAGCUUGGACAGUGUGUGGUCUUCUCCCUAUCUUGCCUCCUGAUUUUUUUUUUC,0.24
GUUCCCAGGAGAACUGGGAGGCACAGGAUUCCCAGCACCCUUGCUGCCUCAUUGGGGAAGUUGGCCAGCUGGACUUCAGAGAGCUAAGACACAGCAUUUUCAAAGAUAGC,1.02
GUGACAGAACUUGAUUAUUUCAUCUUUUCCCACAAUUGUGCUUUAUUGGAUGUGAUGUUUCUUGCAUUCAUGUAAAUUGGAUGCAAUGUUUUCAAAUAAAUGUAGAUCUU,0.395
AAGGAGUCGGAGGCCUUCGUCUGCUGCUUUGGUUCGGUCUCCACUCCUGCACUUUGGCCCCACCCACCCAUCCUAGCCUCUCAUGGCCUCCCACCCCCAUGGGUGCUAGG,1.32
ACUGUAUAUUUGUACUUUUGUGAGAUCCUUUUUGCUGUUUUACCAUUUUAAGUCUCUGUACUUGGCUACACACAGAUUGUAUUUUUAUUGUUAAUGCUCUUCUUAUGGAU,2.1
CAGCAGUUUUGUGGUCUGCUAAUUGUGUGCUGCACACACAGCUGCCUGCUCUAGGGCCUGCCCAGCCCUGAGGGAGGCUAGUCAGCGCCUCCCUACUGCGCCCCUGUAGG,0.382
ACUACUAUUCUUAGUUUGUAAAUUGUCCUUUUGAUACCAUCUUGUUUUCUUUUGUAGGUAUAAAUAAAUACUUGACAAUAAAGGUGUGAAUUUUUUAUUACAUUAAAACU,0.458
UGUUGUUCAGUAUGCAAAUCAAUUAUUUUAAGAAUCGCUUUUGUAAAUAUCUUUGUGAAUAUUUUAGUAUCGUCUUUGAUAAUAUUCAACAUUUUCAUGACCUGGUUAUA,1.15

# Repeated from above (set 1):
Sequence,fitted relative affinity [z-score]
AGAGCCTGGGGATGCAGAGAGTGCTAG,-1.24
TTTCCCTAGAAGACGAAAGAGTGCTAG,3.8
GACGATATTAGTTTCGAGACGTGCTAG,2.9
TTAGGATTCGGTCTCGGTTAGTGCTAG,3.49
TTAGGTATCGGGTATCGGTTTGTGCTA,2.9
TTAGATATCCGTCTCGATTAGTGCTAG,2.37
GACGGACAGGGTCTCGGGACGTGCTAG,-0.792
